Results collected from several papers.
Parts stem from different laboratories: compare values within a part only.
Sequence of UniProt O15294 (whole entry, looked up): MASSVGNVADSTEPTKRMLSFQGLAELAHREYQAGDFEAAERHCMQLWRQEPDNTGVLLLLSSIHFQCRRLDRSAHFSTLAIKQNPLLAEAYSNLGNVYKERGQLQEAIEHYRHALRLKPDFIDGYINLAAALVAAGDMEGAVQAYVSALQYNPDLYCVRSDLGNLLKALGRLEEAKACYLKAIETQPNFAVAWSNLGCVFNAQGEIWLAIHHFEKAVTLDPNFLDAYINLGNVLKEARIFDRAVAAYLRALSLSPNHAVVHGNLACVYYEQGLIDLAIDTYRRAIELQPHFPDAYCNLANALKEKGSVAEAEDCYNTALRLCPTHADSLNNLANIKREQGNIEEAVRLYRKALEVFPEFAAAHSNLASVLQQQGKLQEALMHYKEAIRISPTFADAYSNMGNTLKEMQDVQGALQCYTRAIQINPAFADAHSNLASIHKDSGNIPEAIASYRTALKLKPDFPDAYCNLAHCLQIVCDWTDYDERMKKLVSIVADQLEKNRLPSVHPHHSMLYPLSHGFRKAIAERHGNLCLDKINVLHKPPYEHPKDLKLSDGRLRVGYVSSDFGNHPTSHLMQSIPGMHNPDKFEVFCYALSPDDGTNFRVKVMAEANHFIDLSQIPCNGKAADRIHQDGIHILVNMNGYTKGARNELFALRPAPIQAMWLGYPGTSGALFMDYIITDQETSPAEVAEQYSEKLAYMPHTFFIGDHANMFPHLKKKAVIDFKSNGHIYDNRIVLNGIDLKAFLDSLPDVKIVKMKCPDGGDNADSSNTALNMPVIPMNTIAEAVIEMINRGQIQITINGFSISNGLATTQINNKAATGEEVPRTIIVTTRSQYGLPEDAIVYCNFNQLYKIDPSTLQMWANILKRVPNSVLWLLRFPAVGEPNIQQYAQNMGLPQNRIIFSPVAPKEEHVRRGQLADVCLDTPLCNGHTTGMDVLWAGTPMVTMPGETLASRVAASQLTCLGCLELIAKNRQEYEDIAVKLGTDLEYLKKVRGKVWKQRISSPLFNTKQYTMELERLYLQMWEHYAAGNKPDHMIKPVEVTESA

Series 1
Target: Runt-related transcription factor 1, full length (RUNX1, Homo sapiens, UniProt Q01196-8, residues 1-480)
Technique: protein-binding microarray
Molecule type: hairpin DNA
Medium: in vitro
Tested at: not given
Setting: whole hairpin DNA, median over replicate spots
Reference: not given
Reading: higher = stronger binding
| Sequence | median fluorescence [a.u.] |
| --- | --- |
| GAGGCCTGTCGCGGTTGGCCTCCTGGCCAACCGCGACAGGCCTCACACTC (5mC at 10 12) | 2660 |
| GAGGCCCAACCGCATCAGCCTCCTGGCTGATGCGGTTGGGCCTCACACTC | 3600 |
| CTCAGTGCTGTGGGCTGGACTCCTGTCCAGCCCACAGCACTGAGACACTC (5mC at 38) | 1970 |
| CTCAGTGCTGTGGGCTGGACTCCTGTCCAGCCCACAGCACTGAGACACTC | 1830 |
| GAGGCCTGTTGCGGCGGGCCTCCTGGCCCGCCGCAACAGGCCTCACACTC (5mC at 15 29) | 2320 |
| GAGGCCTGTCGCGCGTGGCCTCCTGGCCACGCGCGACAGGCCTCACACTC (5mC at 30) | 1810 |
| GAGGCCCAGCCGCAACAGCCTCCTGGCTGTTGCGGCTGGGCCTCACACTC | 2440 |
| GAGGCCCCGCCGCAACAGCCTCCTGGCTGTTGCGGCGGGGCCTCACACTC (5mC at 8) | 2440 |

Series 2
Target: PABPC1L2, full length, GST fusion (mouse, UniProt A0ABA7IW68)
Technique: RNAcompete
Molecule type: RNA
Medium: in vitro
Tested at: 20 nM
Setting: 7-mer, probes averaged, single round
Reference: mean of 7-mers
Reading: higher = stronger binding
Residues (chain): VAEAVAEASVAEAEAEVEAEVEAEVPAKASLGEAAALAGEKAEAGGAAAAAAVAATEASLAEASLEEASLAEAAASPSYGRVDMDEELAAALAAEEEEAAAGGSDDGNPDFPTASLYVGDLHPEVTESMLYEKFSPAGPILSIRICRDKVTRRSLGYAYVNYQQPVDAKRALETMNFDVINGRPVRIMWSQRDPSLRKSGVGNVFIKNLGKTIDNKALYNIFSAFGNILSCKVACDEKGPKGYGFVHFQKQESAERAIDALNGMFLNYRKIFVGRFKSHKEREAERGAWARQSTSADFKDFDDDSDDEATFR
| Sequence | 7-mer Z-score |
| --- | --- |
| ACACAGU | -0.126 |
| GAUAUGG | 0.00436 |
| GGCACGG | 0.225 |
| GCCUUGG | -0.282 |
| AGCAGCC | 0.0986 |
| AGUAUAC | -0.195 |
| GAUUUAA | 0.233 |
| CCCCACU | -0.311 |

Series 3
Target: RNA binding protein fox-1 homolog 2, RRM domain, GST-SBP tag (RBFOX2, Homo sapiens, UniProt O43251-10, residues 100-194)
Technique: RNA Bind-n-Seq
Molecule type: RNA
Medium: in vitro
Tested at: 365 nM
Setting: natural RNA segment, single round, ends assumed
Reference: no-protein control
Reading: higher = stronger binding
Shared flanks, not repeated: GGGAGUUCUACAGUCCGACGAUC … UGGAAUUCUCGGGUGCCAA
Construct (chain): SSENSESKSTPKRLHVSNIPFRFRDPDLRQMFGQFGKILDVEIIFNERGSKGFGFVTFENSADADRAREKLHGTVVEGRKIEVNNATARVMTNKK
| Sequence | RBNS enrichment (R) |
| --- | --- |
| AGAGUACCUGCUGCUGUAUCUUGGAAGAUGACAACAUCCUUUUUCAUUACUGUUUGAUUGAAAAUAAUUUCAAGAUUCAAAAUCUCAUUGACUUCCCAAAUUUGUGUUUU | 1.11 |
| UGGCUUUCAGGGUGUUCUGUGAAUCUCCUCAUGAAUACUUUAGGGUAGGGGAGGGAAGGGAGUGAGUGAUGCUCAGGGGCUGUCAAAGUGACUGCGUUCAUCAGUUUUAC | 0.506 |
| ACCAGUGGCCAGAUUUGGCAUCACCCGCCCCUCUUAGCAUCCACAGGAACUGCAUGCCUGCCUCUACCUUUCCCCACCUGAUACACACAGCUCCUGCUGUGACUGAGGGA | 6.16 |
| AAUUUAAAUAUAAAUUGACCAUUGAUGAUAUCCAGUUUUUCAUUUUUUACCUGUAUUGCAUUUUCCCCCUAGAGAAAUAGAUCAAAAGAGCACAAGAGUAUGCGUACAUA | 0.867 |
| AUUUCAGUCUUGAUGUUUGUUCUAUCAGACUUAACCUUUUAUUUCCUGUCCUUCCUUGAAAUUGCUGAUUGUUCUGCUCCCUCUACAGAUAUUUAUAUCAAUUCCUACAG | 0.914 |
| UCACAAAUUGAGGAGUGAAAUAGGAGACUGCAUGCUGGAUUUCAUGAUGAAAAUUUAUACUUUCACAUAGGAAAAUAAUUGCCUUUCCAUUGCUCCUUCUGAAGCAUUUC | 1.87 |
| CUGUGUAUAAAAUUUACUGGCCUUCUUCACUUACCUGCUCUAGUAUCGUAUCGUGUGUGCGUGCGUGUGUGACGUCAGGCUGCCACGUAAACUUCAGAGAAGAACCUUAA | 0.619 |
| AAAAUUCAGAGAAUCUGUAAAGAACCCCCCACCCCUCAAAAAAGCCUAAGCACUUGCUGUUGUUCUUUUGUGAUUAUGGCUGUACAUUUAGUUGUCUUUCUAGUUAUGAA | 0.255 |

Other studies, line by line
| Sequence | target | test | test system | setting | how to read | measurement | value |
| --- | --- | --- | --- | --- | --- | --- | --- |
| TAPTHHGHHYASDHH | UDP-N-acetylglucosamine--peptide N-acetylglucosaminyltransferase 110 kDa subunit (OGT, Homo sapiens, UniProt O15294) | binding, phage display NGS | peptide | concentration not given | reference: input library | enrichment fold change | 5.36 |

Repeated from above (series 2):
| Sequence | 7-mer Z-score |
| --- | --- |
| GGCACGG | 0.225 |
| AGCAGCC | 0.0986 |
| CCCCACU | -0.311 |
